Results collected from several papers.
Lines come from different studies, so protocols differ. ± gives the spread as reported.
Organism: Plasmodium falciparum

C[C@H]1Cc2c([nH]c3cc(Cl)c(F)cc23)[C@@]2(N1)C(=O)Nc1ccc(Cl)cc12 — EC50 (parasite growth; Dd2-NITD609): 9.1 ± 1.4 nM
O=S(=O)(c1ccc(-c2ccc3ncnc(Nc4ccc(OCc5cccc(F)c5)c(Cl)c4)c3c2)cc1)N1CCCCC1 — EC50 (parasite growth, SYBR Green; D6; blood stage): 180 nM
Cc1nc2c(C#N)cccc2n1-c1ccc(C(=O)NC2CC2)s1 — EC50 (parasite growth): 78.7 ± 22 nM
CC1CCC(C(C)(C)C(=O)Nc2ccc(Oc3ccccc3)cc2)CC1 (centres unmarked) — IC50 (parasite growth, SYBR Green; DD2; blood stage): 56 nM
CCC1(CC)CC(=O)N(C2CCOc3ccc(C(=O)NC4CC(C)(C)Oc5ccccc54)cc32)C(=N)N1 (centres unmarked) — EC50 (parasite growth; Dd2-NITD609): 0.4 nM
CN1CCN(S(=O)(=O)c2ccc(-c3ccc4ncnc(Nc5ccc(F)cc5)c4c3)cc2)CC1 — EC50 (parasite growth, SYBR Green; D6; blood stage): 360 nM
C[C@@H]1CC[C@H]2[C@@H](C)C(=O)O[C@@H]3O[C@@]4(C)CC[C@@H]1[C@]32OO4 — IC50 (parasite growth; 72 h): 6.02 ± 0.43 nM
CCN(CC)CCCC(C)Nc1ccnc2cc(Cl)ccc12 (centres unmarked) — EC50 (parasite growth; W2Mef): 586 ± 105 nM
COc1ccc2cc1Oc1cc3c(cc1OC)CCN(C)C3Cc1ccc(cc1)Oc1c(O)c(OC)cc3c1C(C2)N(C)CC3 (centres unmarked) — inhibition (erythrocyte invasion; 1.34 µM): 100%
OC(c1cc(C(F)(F)F)nc2c(C(F)(F)F)cccc12)C1CCCCN1 (centres unmarked) — EC50 (parasite growth; Dd2): 34.9 ± 0.5 nM
COc1ccccc1-n1c(SCC(=O)Nc2ccccc2F)nc2cccnc21 — EC50 (parasite growth, SYBR Green; 3D7; 72 h): 273 nM
Oc1cccc2c1[nH]c1c(C3=CC4(O)CCC=CCCCCN5CCC3C3(CC6C=CCCCCN6C43)C5)nccc12 (single isomer, unassigned; (+)) — selectivity index (D6, chloroquine-sensitive; relative to: Vero IC50 over D6 IC50): 40
Cc1cc(Cl)ccc1OC(C)C(=O)N1CCc2ccccc21 (centres unmarked) — EC50 (parasite growth): 37.5 ± 6 nM
O=S(=O)(c1cccc(-c2ccc3ncnc(Nc4ccc(OCc5cccc(F)c5)c(Cl)c4)c3c2)c1)N1CCOCC1 — EC50 (parasite growth, SYBR Green; D6; blood stage): 280 nM
Cc1nc2ccc(-c3ccc(OC(F)(F)F)cc3)cc2c(O)c1C#N — EC50 (parasite growth): 125 ± 32 nM
COCCN(C)C(C)C(=O)NC(Cc1ccc(-c2ccccc2)cc1)B(O)O (centres unmarked) — IC50 (parasite growth; Dd2-B2 wild type; 72 h): 557 ± 23 nM
COC(=O)C1=CO[C@@H](C)[C@@H]2Cn3ccc4c5ccccc5nc-4c3C[C@H]12 — resistance index (growth, [3H]-hypoxanthine uptake; Dd2; 48 h; relative to: Dd2 IC50 over 3D7 IC50): 0.1
Nc1ncnc2c1c(-c1ccc(Oc3ccccc3)cc1)cn2C1CCCC1 — merozoite invasion (FVO, purified merozoites, erythrocytes; 50 µM): 20%
CCCN(Cc1nnc(-c2ccco2)o1)C(=O)C1CCCN(C(=O)c2ccc(Cl)cc2)C1 (centres unmarked) — EC50 (parasite growth, SYBR Green; 3D7; 72 h): 187 nM
Fc1cccc(COc2ccc(Nc3ncnc4ccc(-c5ccccc5)cc34)cc2Cl)c1 — EC50 (parasite growth, SYBR Green fluorescence; W2, drug-resistant): 2600 nM
CC(NC(=O)c1cccc(C(c2ccccc2)N2C(=N)NC(C)(C(C)C)CC2=O)c1)c1ccccc1 (centres unmarked) — EC50 (parasite growth; W2Mef): 12.9 nM
c1ccc(COc2ccc(Nc3ncnc4ccc(-c5cccc(N6CCOCC6)c5)cc34)cc2)cc1 — EC50 (parasite growth, SYBR Green fluorescence; W2, drug-resistant): > 15000 nM
O[C@]12C=C(c3nccc4c3[nH]c3ccccc34)[C@@H]3CCN(CCCC/C=C\CC1)C[C@@]31C[C@@H]3/C=C\CCCCN3[C@H]12 — IC50 ratio (W2, chloroquine-resistant; relative to: compound over 4): > 3 fold
Fc1cccc(COc2ccc(Nc3ncnc4ccc(-c5cccc(CN6CCOCC6)c5)cc34)cc2Cl)c1 — EC50 (parasite growth, SYBR Green; D6; blood stage): 190 nM
COc1cc2c3cc1Oc1cc(ccc1O)CC1c4c(cc(OC)c(O)c4Oc4ccc(cc4)CC3N(C)CC2)CCN1C (centres unmarked) — IC50 (parasite growth, inhibitor, SYBR Green I; 3D7): 1460 nM
C[C@H](Oc1ccc(C(=O)c2ccc(F)cc2)cc1)C(=O)N1CCc2ccc(C(F)(F)F)cc21 — EC50 (parasite growth, SYBR Green; 3D7 wild type; 72 h): < 10 nM
CN1CCN(S(=O)(=O)c2ccc(-c3ccc4ncnc(Nc5ccccc5)c4c3)cc2)CC1 — EC50 (parasite growth, SYBR Green fluorescence; C235 (TM91C235), drug-resistant): 730 nM
COc1ccccc1-n1ccnc1SCC(=O)Nc1cc(C(F)(F)F)ccc1Cl — EC50 (parasite growth, SYBR Green; 3D7): 2.25 nM
CN1CCN(S(=O)(=O)c2cccc(-c3ccc4ncnc(Nc5ccc(OCc6cccc(F)c6)c(Cl)c5)c4c3)c2)CC1 — EC50 (parasite growth, SYBR Green fluorescence; W2, drug-resistant): 84 nM
